Published values gathered from unrelated publications.
Protocols differ between the studies behind these lines. Numbers after ± are the reported error.
Organism: Trypanosoma congolense

Structure (SMILES)	assay	system	setting	how to read	endpoint	result
O=[N+]([O-])c1ccc(/C=N/N=C/c2ccc(O)cc2)o1	parasite growth, CellTiter-Glo	IL3000 bloodstream form	72 h, 33 °C		IC50	200 ± 70 nM
Nc1ncnc2c1c(-c1ccccn1)cn2[C@@H]1O[C@H](CO)[C@@H](O)[C@H]1O	parasite growth, resazurin		72 h		EC50	170 nM
O=[N+]([O-])c1ccc(/C=N/N=C/c2ccc(Cl)cc2)s1	parasite growth, CellTiter-Glo	IL3000 bloodstream form	72 h, 33 °C		IC50	140 ± 60 nM
Nc1ncnc2c1c(Br)cn2[C@H]1C[C@H](O)[C@@H](CO)O1	parasite growth, resazurin		72 h		EC50	510 nM
CCOC(=O)C(C)NC(=O)CN1C(=O)N/C(=C\c2ccc(C)cc2)C1=O (stereo not drawn)		MDBK, IL3000		baseline: MDBK CC50 over parasite IC50	selectivity index	4
Nc1ncnc2c1c(Br)cn2[C@@H]1O[C@H](CO)C[C@H]1O	parasite growth, resazurin		72 h		EC50	0.7 nM
Cc1ccc(/C=N/N=C/c2ccc([N+](=O)[O-])s2)cc1	parasite growth, CellTiter-Glo	IL3000 bloodstream form	72 h, 33 °C		IC50	350 ± 100 nM
COc1ccc(O)c(-c2nc(-c3ccccc3)c(-c3ccccc3)n2-c2ccccc2)c1	parasite viability, luminescence	IL3000 bloodstream form	72 h, 33 °C		EC50	11.3 µg/mL
Nc1ncnc2c1c(C(F)(F)F)cn2[C@@H]1O[C@H](CO)[C@@H](O)[C@H]1O	parasite growth, resazurin		72 h		EC50	1800 nM
O=[N+]([O-])c1ccc(/C=N/N=C/c2ccc(F)cc2)s1	parasite growth, CellTiter-Glo	IL3000 bloodstream form	72 h, 33 °C		IC50	60 ± 30 nM
c1ccc(-n2c(-c3cccs3)nc3c4ccccc4c4ccccc4c32)cc1	parasite viability, luminescence	IL3000 bloodstream form	72 h, 33 °C		EC50	> 25 µg/mL
CCOC(=O)C(CC)NC(=O)CN1C(=O)S/C(=C\c2ccc(OC)cc2)C1=O (stereo not drawn)	parasite growth		72 h		IC50	> 58000 nM
Cc1c(O)c(-c2nc(-c3ccccc3)c(-c3ccccc3)[nH]2)cc(-c2nc(-c3ccccc3)c(-c3ccccc3)[nH]2)c1O	parasite viability, luminescence	IL3000 bloodstream form	72 h, 33 °C		EC50	21.2 µg/mL
CCOC(=O)C(CC)NC(=O)CN1C(=O)S/C(=C\c2ccc([N+](=O)[O-])cc2)C1=O (stereo not drawn)	parasite growth		72 h		IC50	> 66000 nM
O=[N+]([O-])c1ccc(/C=N/N=C/c2ccc(Br)cc2)s1	parasite growth, CellTiter-Glo	IL3000 bloodstream form	72 h, 33 °C		IC50	120 ± 30 nM
CCOC(=O)C(NC(=O)CN1C(=O)N/C(=C\c2ccc3c(c2)OCO3)C1=O)C(C)C (stereo not drawn)	parasite growth		72 h		IC50	40400 nM
COc1ccc(-n2c(-c3cccc(OC)c3O)nc(-c3ccccc3)c2-c2ccccc2)cc1OC	parasite viability, luminescence	IL3000 bloodstream form	72 h, 33 °C		EC50	> 25 µg/mL
O=[N+]([O-])c1ccc(/C=N/N=C/c2ccc(Cl)cc2)o1	parasite growth, CellTiter-Glo	IL3000 bloodstream form	72 h, 33 °C		IC50	140 ± 50 nM
CCOC(=O)CNC(=O)CN1C(=O)S/C(=C\c2ccc(OC)c(O)c2)C1=O	parasite growth		72 h		IC50	37300 nM
Nc1ncnc2c1ccn2[C@@H]1O[C@H](CO)C[C@H]1O	parasite growth, resazurin		72 h		EC50	21 nM
CCC(NC(=O)CN1C(=O)N/C(=C\c2ccc(C)cc2)C1=O)C(=O)OC (stereo not drawn)	parasite growth		72 h		IC50	66000 nM
Nc1ncnc2c1c(I)cn2[C@@H]1O[C@H](CO)C[C@H]1O	parasite growth, resazurin		72 h		EC50	5 nM
CCOC(=O)CNC(=O)CN1C(=O)S/C(=C\c2ccc(C)cc2)C1=O		MDBK, IL3000		baseline: MDBK CC50 over parasite IC50	selectivity index	3
O=[N+]([O-])c1ccc(/C=N/N=C/c2ccc(OCc3ccccc3)cc2)s1	parasite growth, CellTiter-Glo	IL3000 bloodstream form	72 h, 33 °C		IC50	280 ± 80 nM

Some of these lines once more:
Structure (SMILES)	assay	system	setting	how to read	endpoint	result
O=[N+]([O-])c1ccc(/C=N/N=C/c2ccc(Cl)cc2)s1	parasite growth, CellTiter-Glo	IL3000 bloodstream form	72 h, 33 °C		IC50	140 ± 60 nM
O=[N+]([O-])c1ccc(/C=N/N=C/c2ccc(Cl)cc2)o1	parasite growth, CellTiter-Glo	IL3000 bloodstream form	72 h, 33 °C		IC50	140 ± 50 nM
Cc1c(O)c(-c2nc(-c3ccccc3)c(-c3ccccc3)[nH]2)cc(-c2nc(-c3ccccc3)c(-c3ccccc3)[nH]2)c1O	parasite viability, luminescence	IL3000 bloodstream form	72 h, 33 °C		EC50	21.2 µg/mL
O=[N+]([O-])c1ccc(/C=N/N=C/c2ccc(F)cc2)s1	parasite growth, CellTiter-Glo	IL3000 bloodstream form	72 h, 33 °C		IC50	60 ± 30 nM
